Experimental data collected from several papers.
Each numbered part is a random draw from the data of one study; scales do not carry over between parts.

Set 1 — method: RNA Bind-n-Seq; form: RNA; sample: in vitro; tested at: 365 nM; reference: no-protein control; reading: higher = stronger binding; endpoint: RBNS enrichment (R)
Target: RNA binding protein fox-1 homolog 2, RRM domain, GST-SBP tag (RBFOX2, Homo sapiens, UniProt O43251-10, residues 100-194)
Notes: natural RNA segment, single round, ends assumed
Target sequence (chain): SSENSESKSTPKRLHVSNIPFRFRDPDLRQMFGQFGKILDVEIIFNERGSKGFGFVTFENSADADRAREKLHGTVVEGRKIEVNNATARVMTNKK
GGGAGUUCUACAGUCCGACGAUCUAUGUGAACAGUGAGAUGGCCGUUUCUGACUUGUAGAGAAAUUUUAAUAAACCUGGUUUCGUAAAUAGGUGUGGUGAAUUUCUUUCGAGUUCCAUCUGCUUUGCCUUUUGUGGAAUUCUCGGGUGCCAA: 0.876
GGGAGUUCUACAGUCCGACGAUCACUAGUCAGGUACCGUUUUAUCCCAGUCGUACUCUUCCAGGUUUGGAAGACCCAGAGAGGCCAAGAUCCCAUCCUUAGCCAUAGCGAGCGGUGGUGGUGGAUAGCAUCACUGGAAUUCUCGGGUGCCAA: 0.294
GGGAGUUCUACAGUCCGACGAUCAAUGUAUGCUGUGAGACAUGAAAUUAAAACAGACCUAUGAAAUAAAUUAUUUUAAAACCAGAAGAUUCAGAUUUUCCAAUGUUAAAUUUUUUUGAUAAGGUGGCUGAAUGUGGAAUUCUCGGGUGCCAA: 1.26
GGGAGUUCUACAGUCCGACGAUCCCCUAGGCUCAGGUAGCUUGUUCCUUGGGGUGGGAAGGGAGCUAGGGAAGGGUCAAAGUGUGGACAUUGAGAAGAGGAGAGGAAAGGAGCAAGAGCUGAACUCCUGCUGCUGGAAUUCUCGGGUGCCAA: 0.971
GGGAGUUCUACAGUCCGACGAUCGAGAAGACCACUGUGAGCAUUUUGCCGUAUAUCCUGCCCUGCCAUUUGUUCACUUUUUAAACUAAAAUAGGAACAUCCGACACACACCGUUUGCAUCGUCUUCUCCCUUGUGGAAUUCUCGGGUGCCAA: 0.348
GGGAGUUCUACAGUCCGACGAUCUCUUGACCUGCCAGCUUCACUUCCAUCUGUGUUGCUAUUAGGUAUCUCUAACACCAGCACACUUCUUACGAGAUGUACUCAACCUGGCCUACUGGCCAGGUCACCAAGCAUGGAAUUCUCGGGUGCCAA: 1.05
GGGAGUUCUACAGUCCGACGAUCAGAGGGGCUACACUAGCCCACCCCAUUUAGAGUGGUCCUGUCUACUCUACAGCAACUCUCUUGGGCUCUCAGCUCUUGCUUACACUGCUUCCUUUCUGGCCUCUAUGGUGUGGAAUUCUCGGGUGCCAA: 0.33
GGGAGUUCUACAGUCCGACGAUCGGGUUGAUGAGGGCCCUGGCACCACUGUCACCACCCACCCCUUCCUACCAGCUGCUGCUAGCCCUCUGUGGUUGUGCACCCCUCUUGCCCCCAUUCAGGGGCCGACUAACUGGAAUUCUCGGGUGCCAA: 0.353
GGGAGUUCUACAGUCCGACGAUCGACCUUCUAGGGUCUGGCUGGGGUCAUCCUAGGUAUGGGUGACCGUCCCUGAGACAUAAGCGAGGUAGAUUCAGCCAUCCUCACCCUCAGACUUGAGGUCCCCACCCAGGUGGAAUUCUCGGGUGCCAA: 0.246
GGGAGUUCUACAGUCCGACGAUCUAUUCAUCUUGUUGGAACCCCACCCCAUUUUCCCUGACAGAACAUUCCUAAGUCUCAAGGGCUAGUUUCCCUGAGGAGCCCAGGCCUAACCCUCUCUCUCUCAAGCUGCCUGGAAUUCUCGGGUGCCAA: 0.626
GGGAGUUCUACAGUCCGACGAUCUCUUGUGAGCAGAUGUACCUGAAGGAUUCUGCUGUUCCAUGAGGGUCUGGCUCUCAGGCUGUAGGCAGUGAUGGGGCAGCACAAGGCUGGAUAAAUCCCUUCCCUAUUGAUGGAAUUCUCGGGUGCCAA: 0.407
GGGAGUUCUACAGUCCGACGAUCUCCAGGAGAAGGCCAAUUCCUAUACGCAGCGUGCUUUAAAAAAUAAAUAAGAAACAACUCUUUGAGAAACAACAAUUUCUACUUUGAAGUCAUACCAAUGAAAAAAUGUAUGGAAUUCUCGGGUGCCAA: 0.7

Set 2 — method: protein binding microarray; form: double-stranded DNA, one strand shown; sample: in vitro; tested at: not given; reference: not given; reading: higher = stronger binding; endpoint: E-score
Target: Histone acetyltransferase KAT6A, both winged helices, GST fusion (KAT6A, Homo sapiens, UniProt Q92794, residues 1-181)
Notes: 8-mer, flanks averaged, mean of 2 arrays, mostly near background
Target sequence (chain): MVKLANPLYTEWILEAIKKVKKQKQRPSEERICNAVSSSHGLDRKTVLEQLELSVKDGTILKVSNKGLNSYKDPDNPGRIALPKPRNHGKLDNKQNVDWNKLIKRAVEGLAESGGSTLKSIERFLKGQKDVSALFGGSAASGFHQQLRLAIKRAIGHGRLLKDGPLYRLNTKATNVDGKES
AGCCCACA: -0.177
ACATCTGA: -0.0378
GATAAAAA: -0.0891
AGTGTGTG: -0.0538
CCGGGGCA: 0.107
CGCAAGTA: 0.0892
AACACGCC: 0.231
CGGAGCCC: -0.0174
ATTCTCAC: -0.107
CCTGCAGA: -0.127
GGCGTAGA: 0.0105
AGTCAGTC: -0.0366
TCCTGCGA: -0.0439
ATCGAGCA: -0.148
AAGAAAGT: -0.118
GCCACATA: -0.0432
CCGCGACG: 0.31
AAGTATCC: -0.0812
ATCTTATC: -0.0586
GGGCGGCA: 0.26

Set 3 — method: universal PBM; form: double-stranded DNA, one strand shown; sample: in vitro; tested at: 600 nM; reading: higher = stronger binding; endpoint: E-score
Target: Sal-like protein 4, full length isoform A (SALL4, Homo sapiens, UniProt Q9UJQ4, residues 1-1053)
Chain of UniProt Q9UJQ4 (whole entry, looked up): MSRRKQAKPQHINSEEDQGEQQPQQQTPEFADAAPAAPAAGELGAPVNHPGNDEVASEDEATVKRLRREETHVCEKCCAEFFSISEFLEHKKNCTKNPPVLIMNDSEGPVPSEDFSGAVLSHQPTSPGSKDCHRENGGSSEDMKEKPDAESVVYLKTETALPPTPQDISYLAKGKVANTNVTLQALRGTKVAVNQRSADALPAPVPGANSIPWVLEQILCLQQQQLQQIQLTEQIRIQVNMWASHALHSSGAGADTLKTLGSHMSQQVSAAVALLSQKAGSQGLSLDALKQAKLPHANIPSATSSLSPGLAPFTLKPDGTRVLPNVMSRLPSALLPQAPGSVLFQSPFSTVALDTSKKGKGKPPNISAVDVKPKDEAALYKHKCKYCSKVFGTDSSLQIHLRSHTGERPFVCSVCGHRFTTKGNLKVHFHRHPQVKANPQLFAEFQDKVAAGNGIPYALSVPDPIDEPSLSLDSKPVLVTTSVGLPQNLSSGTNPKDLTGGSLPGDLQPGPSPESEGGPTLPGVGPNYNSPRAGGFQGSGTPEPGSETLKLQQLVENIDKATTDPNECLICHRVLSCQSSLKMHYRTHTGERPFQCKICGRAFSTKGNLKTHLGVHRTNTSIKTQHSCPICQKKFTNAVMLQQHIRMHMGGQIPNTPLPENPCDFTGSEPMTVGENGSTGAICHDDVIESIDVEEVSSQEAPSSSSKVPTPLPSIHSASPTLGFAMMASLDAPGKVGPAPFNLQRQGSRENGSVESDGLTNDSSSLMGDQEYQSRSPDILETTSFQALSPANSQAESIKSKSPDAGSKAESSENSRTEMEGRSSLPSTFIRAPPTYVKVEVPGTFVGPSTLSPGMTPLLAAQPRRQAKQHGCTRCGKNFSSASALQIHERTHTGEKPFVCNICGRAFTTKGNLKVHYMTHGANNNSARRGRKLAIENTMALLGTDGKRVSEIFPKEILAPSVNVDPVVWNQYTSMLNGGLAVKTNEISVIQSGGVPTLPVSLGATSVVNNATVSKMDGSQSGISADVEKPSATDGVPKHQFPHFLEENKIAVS
Notes: 8-mer, flanks averaged, mean of replicates
CCAGTACA: 0.102
GAGGAGCC: -0.247
ATATGTCA: 0.294
GCAATGGC: -0.193
ATGTCCGG: -0.158
GCATGCTA: -0.156
AGTATGAG: 0.23
ACTTACAC: 0.0739
AATATCAG: 0.273
AGTGGACA: 0.0176
AGTGCTGC: -0.21
ACCCAGCC: -0.32
CTCACGTC: -0.127
CGTTTAAA: 0.178
AGCGTCCA: -0.237
ACATCTCT: -0.0181
CTTGCCGC: -0.311
TCGGCAAA: -0.173
CGCTATAG: 0.0544
AGTTGCCA: -0.157

Set 4 — method: RNA Bind-n-Seq; form: RNA; sample: in vitro; tested at: 1 µM; notes: whole 134-nt RNA, ends assumed; with: 150 mM KCl; reference: input library; reading: higher = stronger binding; endpoint: log2 enrichment
Target: Ras GTPase-activating protein-binding protein 1, C-terminal RGG region (G3BP1, Homo sapiens, UniProt Q13283)
Chain of UniProt Q13283 (whole entry, looked up): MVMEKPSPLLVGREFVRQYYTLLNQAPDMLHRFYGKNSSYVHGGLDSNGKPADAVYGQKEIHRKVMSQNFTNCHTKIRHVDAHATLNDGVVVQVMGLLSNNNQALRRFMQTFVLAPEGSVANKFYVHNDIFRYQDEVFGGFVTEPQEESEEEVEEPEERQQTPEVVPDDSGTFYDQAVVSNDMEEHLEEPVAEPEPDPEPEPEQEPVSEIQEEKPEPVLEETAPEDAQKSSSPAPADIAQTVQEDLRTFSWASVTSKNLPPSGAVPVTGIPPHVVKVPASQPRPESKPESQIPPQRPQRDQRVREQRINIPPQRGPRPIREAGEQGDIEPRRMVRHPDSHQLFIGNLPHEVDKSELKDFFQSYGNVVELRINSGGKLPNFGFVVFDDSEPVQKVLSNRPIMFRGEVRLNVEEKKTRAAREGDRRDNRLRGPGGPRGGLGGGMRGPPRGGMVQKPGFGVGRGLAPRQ
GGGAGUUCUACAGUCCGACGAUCUGGCCCUGGUGGCAUGCGGGGAGGAAGAGGUGGCCUCAUGGAUCGUGGUGGUCCCGGUGGAAUGUUCAGAGGUGGCCGUGUUGGAGACAGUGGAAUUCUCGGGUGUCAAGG: 3.44
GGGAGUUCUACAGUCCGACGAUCCUGUGCUACACAUCGUAUGUACCGAAUCGGGCCCCCCCGGGCCCCCCCGGGGCCCCCCCGGGAAAGUAUUAUGUUACGCCGUUCGGAUCUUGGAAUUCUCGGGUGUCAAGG: -2.4
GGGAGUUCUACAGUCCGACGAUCGUCCUGUGCUACACAUCGUAUGUACCGAAUCGGGCCCCCCGGCCCCCCGGGCCCCCCGGAAAGUAUUAUGUUACGCCGUUCGGAUCUGCAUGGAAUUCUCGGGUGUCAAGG: -0.886
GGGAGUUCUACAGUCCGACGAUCUGGGAGGUGGAUUUGGUUUAUUUUUUUAGCUCAUUUCCAGGGGUGGGAAUUUUUUUUUAAUAUGUGUCAUGAAUAAAGUUGUUUUUGAAAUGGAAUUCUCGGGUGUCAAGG: 2.97
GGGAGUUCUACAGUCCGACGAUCCACAGACAACACGCACCCACACAGACACAGAGGGAAGGGGAUGGGAUGGGGACAGGGUGCACAGCAGGGCGGGGUAGGACCCCAGCCCCUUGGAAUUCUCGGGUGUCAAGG: -0.405
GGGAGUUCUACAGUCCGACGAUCAGUCCUGUGCUACACAUCGUAUGUACCGAAUCGGUUUUUGGGUUUUUGGGUUUUUGGGAAAGUAUUAUGUUACGCCGUUCGGAUCUGCACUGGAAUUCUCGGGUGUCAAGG: -1.35
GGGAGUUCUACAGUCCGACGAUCACCAUGCAGGUGGGCAUCUUUGGGAAGUGGGGCAAUGGGGGGAUAGGGAGGGGGGUAACACUUUGGGAACAGGUGGUCCCAGGUCGUUUCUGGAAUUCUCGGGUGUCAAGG: -0.747
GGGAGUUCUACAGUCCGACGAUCCCUGUGCUACACAUCGUAUGUACCGAAUCGGGAAAAAAAGGGAAAAAGGGAAAAAAAGGGAAAGUAUUAUGUUACGCCGUUCGGAUCUGCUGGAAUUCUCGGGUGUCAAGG: -1.85
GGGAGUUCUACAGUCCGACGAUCCCUGUGCUACACAUCGUAUGUACCGAAUCGGGGUUUGGGGUUUUUGGGGAAAAAAAGGGGAAAGUAUUAUGUUACGCCGUUCGGAUCUGCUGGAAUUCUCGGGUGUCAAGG: 0.899
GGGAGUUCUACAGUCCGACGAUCAAGUCCUGUGCUACACAUCGUAUGUACCGAAUCGGUUUGGUUUUUUUGGAAAAAGGAAAGUAUUAUGUUACGCCGUUCGGAUCUGCACUUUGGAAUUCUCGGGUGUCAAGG: -1.94

For quick reference, copied from above (set 2):
ATCTTATC: -0.0586
ATCGAGCA: -0.148
AAGAAAGT: -0.118
CCTGCAGA: -0.127
GATAAAAA: -0.0891
GGCGTAGA: 0.0105
GGGCGGCA: 0.26
AGTCAGTC: -0.0366
AAGTATCC: -0.0812
